Measured values of several laboratories.
Lines come from different studies, so protocols differ.
Organism: Klebsiella pneumoniae

Structure (SMILES)	assay	system	conditions	MIC
CC[C@H](C)[C@H](NC(=O)[C@@H](CCCNC(=N)N)NC(=O)[C@H](CCCNC(=N)N)NC(=O)[C@@H]1CCCN1C(=O)[C@@H]1CCCN1C(=O)[C@H](CCCNC(=N)N)NC(=O)[C@@H]1CCCN1C(=O)[C@H](CCCNC(=N)N)NC(=O)[C@@H]1CCCN1C(=O)[C@H](CC(C)C)NC(=O)[C@H](Cc1ccccc1)NC(=O)[C@@H]1CCCN1C(=O)[C@@H]1CCCN1C(=O)[C@H](CCCCN)NC(=O)[C@H](CC(=O)O)NC(=O)[C@@H](N)C(C)C)C(=O)N[C@@H](Cc1ccc(O)cc1)C(=O)N[C@@H](CC(N)=O)C(=O)N[C@H](CCCNC(=N)N)C(N)=O	broth microdilution	DSM 681	18 h, 37 °C, 25% MHB2	4 µg/mL
C=CCO/N=C(\C(=O)N[C@@H]1C(=O)N(OS(=O)(=O)O)C1(C)C)c1nsc(N)n1	agar dilution	2146, NDM-1	–	64 µg/mL
CCn1c(-c2ccc(F)cc2)c(-c2ccc(F)cc2)n(CC)c1=[Se]	broth microdilution	carbapenem-resistant BAA-1705	24 h	> 40 µM
C=C1NC(=O)C2C[S+]([O-])CC3NC(=O)C(CSC(C)C(NC(=S)C(Cc4cnc[nH]4)NC(=O)c4csc(C(C)NC(C)=O)n4)C(=O)N[C@H](CC(C)C(=O)NC(=O)CC(C(=O)O)NC(=O)C(C)NC3=O)C(=O)N2)NC(=O)[C@@H]2CCCN2C(=O)[C@@H](CC(C)C)NC1=O (some centres unmarked)	bacterial growth	ATCC 12657	–	> 32 µg/mL
CC1(C)[C@H](NC(=O)/C(=N\OC2(C(=O)O)CC2)c2nsc(N)n2)C(=O)N1OS(=O)(=O)O	agar dilution	09-20, NDM-1	–	2 µg/mL
CC[C@H](C)[C@H](NC(=O)[C@H](Cc1c[nH]c2ccccc12)NC(=O)[C@H](CCCCN)NC(=O)[C@H](CC(C)C)NC(=O)[C@@H](NC(=O)[C@@H](NC(=O)CNC(=O)[C@H](CCCCN)NC(=O)[C@H](Cc1c[nH]cn1)NC(=O)[C@H](CCCCN)NC(=O)[C@H](Cc1c[nH]c2ccccc12)NC(=O)[C@H](C)NC(=O)[C@H](CC(C)C)NC(=O)[C@H](CO)NC(=O)[C@@H](NC(=O)[C@H](Cc1ccc(O)cc1)NC(=O)[C@H](CCCCN)NC(=O)[C@H](CCC(N)=O)NC(=O)CNC(=O)[C@H](CCCCN)NC(=O)[C@@H](NC(=O)[C@H](C)NC(=O)[C@H](CC(C)C)NC(=O)[C@H](Cc1ccccc1)NC(=O)[C@H](CCC(N)=O)NC(=O)[C@@H](NC(=O)[C@H](CC(C)C)NC(=O)[C@H](CCCCN)NC(=O)[C@H](CCSC)NC(=O)[C@H](Cc1ccccc1)NC(=O)[C@H](C)NC(=O)[C@H](C)NC(=O)[C@@H](N)CCSC)[C@@H](C)CC)[C@@H](C)O)C(C)C)[C@@H](C)O)[C@@H](C)CC)C(=O)N[C@@H](CC(N)=O)C(N)=O	broth microdilution	NCTC 5055	24 h, 37 °C	20 µg/mL
COc1ccc2ccc(O)c(/C=N/[C@H]3CCCC[C@H]3/N=C/c3ccc(F)cc3O)c2c1	bacterial growth, broth microdilution	carbapenem-resistant clinical isolate	–	> 40 µM
c1ccc2c(c1)nc(CNCC13CC4CC(CC(C4)C1)C3)n2CC1CCCCC1	–	ATCC 700603	–	> 128 µg/mL
CC[C@H](C)[C@H](NC(=O)[C@H](CCCCN)NC(=O)[C@@H](NC(=O)[C@@H](NC(=O)[C@H](CC(C)C)NC(=O)[C@H](CCCNC(=N)N)NC(=O)[C@@H](NC(=O)[C@H](CC(C)C)NC(=O)[C@H](CCCNC(=N)N)NC(=O)CNC(=O)[C@H](Cc1ccccc1)NC(=O)[C@@H](N)CCCNC(=N)N)[C@@H](C)CC)[C@@H](C)CC)C(C)C)C(=O)N[C@@H](C)C(=O)N[C@@H](CCCNC(=N)N)C(=O)N[C@@H](CCCNC(=N)N)C(=O)N[C@@H](C)C(=O)N[C@@H](Cc1c[nH]cn1)C(=O)N[C@@H](CCCNC(=N)N)C(=O)N[C@@H](C)C(=O)N[C@@H](CCCNC(=N)N)C(=O)N[C@@H](CO)C(=O)N[C@@H](C)C(=O)N[C@H](C(=O)N[C@@H](CCCCN)C(=O)N[C@@H](C)C(=O)N[C@@H](C)C(=O)N[C@@H](CO)C(=O)N[C@@H](CC(N)=O)C(=O)N[C@H](C(=O)N[C@@H](C)C(=O)N[C@@H](C)C(=O)N[C@@H](CC(C)C)C(=O)N[C@@H](C)C(=O)N[C@@H](Cc1c[nH]cn1)C(=O)NCC(=O)N[C@@H](C)C(=O)O)C(C)C)C(C)C	bacterial growth, broth microdilution	cation-adjusted Mueller Hinton broth	18 h, 37 °C	0.516 µM
CCCCCCCC(=O)N[C@@H](CCN)C(=O)N[C@H](C(=O)N[C@@H](CCN)C(=O)N[C@H]1CCNC(=O)[C@H]([C@@H](C)O)NC(=O)[C@H](CCN)NC(=O)[C@H](CCN)NC(=O)[C@H](CC(C)C)NC(=O)[C@@H](Cc2ccc(Cl)cc2)NC(=O)[C@H](CCN)NC1=O)[C@@H](C)O	broth microdilution	ATCC 19606	–	< 0.125 µg/mL
CC1(C)[C@H](NC(=O)/C(=N\OCc2c(Cl)cccc2Cl)c2csc(N)n2)C(=O)N1OS(=O)(=O)O	agar dilution	09-20, NDM-1	–	4 µg/mL
N=C(N)NCCC[C@@H]1NC(=O)[C@H](CCCNC(=N)N)NC(=O)[C@@H](CCCNC(=N)N)NC(=O)[C@@H](CCCNC(=N)N)NC(=O)[C@@H](C(c2ccccc2)c2ccccc2)NC(=O)[C@H](Cc2c[nH]c3ccccc23)NC(=O)[C@@H](C(c2ccccc2)c2ccccc2)NC1=O	–	1188718, multidrug-resistant	–	> 64 µg/mL
COc1ccc2ccc(O)c(/C=N/[C@H]3CCCC[C@H]3/N=C/c3ccc(C)cc3O)c2c1	bacterial growth, broth microdilution	carbapenem-resistant clinical isolate	–	> 40 µM
CC[C@H](C)[C@H](NC(=O)[C@@H](CCCNC(=N)N)NC(=O)[C@H](CCCNC(=N)N)NC(=O)[C@@H]1CCCN1C(=O)[C@@H]1CCCN1C(=O)[C@H](Cc1c[nH]c2ccccc12)NC(=O)[C@@H]1CCCN1C(=O)[C@H](CCCNC(=N)N)NC(=O)[C@@H]1CCCN1C(=O)[C@H](CC(C)C)NC(=O)[C@H](Cc1ccc(O)cc1)NC(=O)[C@@H]1CCCN1C(=O)[C@@H]1CCCN1C(=O)[C@H](CCCCN)NC(=O)[C@H](CC(=O)O)NC(=O)[C@@H](N)C(C)C)C(=O)N[C@@H](Cc1ccc(O)cc1)C(=O)N[C@@H](CC(N)=O)C(=O)N[C@H](CCCNC(=N)N)C(N)=O	broth microdilution	DSM 681	18 h, 37 °C, 25% MHB2	4 µg/mL
N=C(N)NCCC[C@@H]1NC(=O)[C@@H](CCCNC(=N)N)NC(=O)[C@H](CCCNC(=N)N)NC(=O)[C@@H](C(c2ccccc2)c2ccccc2)NC(=O)[C@@H](C(c2ccccc2)c2ccccc2)NC(=O)[C@@H](C(c2ccccc2)c2ccccc2)NC(=O)[C@@H](CCCNC(=N)N)NC1=O	–	1188718, multidrug-resistant	–	> 64 µg/mL
CC[C@H](C)[C@H](NC(=O)[C@@H](CCCNC(=N)N)NC(=O)[C@H](CCCNC(=N)N)NC(=O)[C@@H](NC(=O)[C@H](Cc1c[nH]c2ccccc12)NC(=O)[C@H](CCCNC(=N)N)NC(=O)[C@@H]1CCCN1C(=O)[C@H](CCCNC(=N)N)NC(=O)[C@@H]1CCCN1C(=O)[C@H](CC(C)C)NC(=O)[C@H](Cc1ccc(O)cc1)NC(=O)[C@@H]1CCCN1C(=O)[C@@H]1CCCN1C(=O)[C@H](CCCCN)NC(=O)[C@H](CC(=O)O)NC(=O)[C@@H](N)C(C)C)[C@@H](C)O)C(=O)N[C@@H](Cc1ccc(O)cc1)C(=O)N[C@@H](CC(N)=O)C(=O)N[C@H](CCCNC(=N)N)C(N)=O	broth microdilution	DSM 681	18 h, 37 °C, 25% MHB2	4 µg/mL
COc1ccc2ccc(O)c(/C=N/[C@H]3CCCC[C@H]3/N=C/c3cc(F)ccc3O)c2c1	bacterial growth, broth microdilution	carbapenem-resistant	–	> 40 µM
CC[C@H](C)[C@H](NC(=O)[C@H](CCCCN)NC(=O)[C@H](CCCNC(=N)N)NC(=O)[C@H](Cc1c[nH]c2ccccc12)NC(=O)[C@@H](NC(=O)[C@H](CCCCN)NC(=O)[C@H](CCCNC(=N)N)NC(=O)[C@@H](NC(=O)[C@H](CCCNC(=N)N)NC(=O)[C@H](CCCCN)NC(=O)[C@H](CCCNC(=N)N)NC(=O)[C@H](CC(C)C)NC(=O)[C@H](CCCNC(=N)N)NC(=O)[C@H](CO)NC(=O)[C@H](Cc1ccccc1)NC(=O)[C@H](CCCNC(=N)N)NC(=O)CN)[C@@H](C)CC)C(C)C)C(=O)NCC(=O)N1CCC[C@H]1C(=O)N[C@H](C(=O)N[C@@H](C)C(=O)NCC(=O)N1CCC[C@H]1C(=O)N[C@H](C(=O)N[C@H](C(=O)NCC(=O)N[C@@H](Cc1c[nH]cn1)C(=O)N[C@@H](Cc1ccccc1)C(=O)NCC(=O)O)[C@@H](C)CC)[C@@H](C)CC)[C@@H](C)CC	CLSI agar dilution	ATCC 13883	20 h, 37 °C	8 µg/mL
CC[C@H](C)[C@H](NC(=O)[C@@H](CCCNC(=N)N)NC(=O)[C@H](CCCNC(=N)N)NC(=O)[C@@H](NC(=O)[C@H](Cc1c[nH]c2ccccc12)NC(=O)[C@H](CCCNC(=N)N)NC(=O)[C@@H]1CCCN1C(=O)[C@H](CCCNC(=N)N)NC(=O)[C@@H]1CCCN1C(=O)[C@H](CC(C)C)NC(=O)[C@H](Cc1ccc(O)cc1)NC(=O)[C@@H]1CCCN1C(=O)[C@@H]1CCCN1C(=O)[C@H](CCCCN)NC(=O)[C@H](CC(=O)O)NC(=O)[C@@H](N)C(C)C)C(C)C)C(=O)N[C@@H](Cc1ccc(O)cc1)C(=O)N[C@@H](CC(N)=O)C(=O)N[C@H](CCCNC(=N)N)C(N)=O	broth microdilution	DSM 681	18 h, 37 °C, 25% MHB2	4 µg/mL
CCCCCCCC(=O)N[C@@H](CCN)C(=O)N[C@H](C(=O)N[C@@H](CCN)C(=O)N[C@H]1CCNC(=O)[C@H]([C@@H](C)O)NC(=O)[C@H](CCN)NC(=O)[C@H](CCN)NC(=O)[C@H](CC(C)C)NC(=O)[C@@H](Cc2c(F)c(F)c(F)c(F)c2F)NC(=O)[C@H](CCN)NC1=O)[C@@H](C)O	broth microdilution	ATCC 13883, colistin-susceptible	–	4 µg/mL
CC1(C)[C@H](NC(=O)/C(=N\OCc2c(Cl)cccc2Cl)c2nsc(N)n2)C(=O)N1OS(=O)(=O)O	agar dilution	2146, NDM-1	–	> 64 µg/mL
CC[C@H](C)[C@H](NC(=O)[C@H](Cc1c[nH]c2ccccc12)NC(=O)[C@H](Cc1ccc(O)cc1)NC(=O)[C@H](CCCCN)NC(=O)[C@H](CC(C)C)NC(=O)[C@@H](N)CO)C(=O)N[C@@H](CCCNC(=N)N)C(=O)N[C@@H](Cc1ccc(O)cc1)C(=O)N[C@@H](CCCCN)C(=O)N[C@@H](CCCNC(=N)N)C(=O)N[C@@H](CCC(N)=O)C(=O)NCC(=O)N[C@@H](C)C(=O)N[C@@H](C)C(=O)N[C@@H](CCCNC(=N)N)C(=O)N[C@@H](Cc1ccccc1)C(N)=O	broth dilution	ATCC 700603	–	12.5 µM
CCCCCCCC(=O)N[C@@H](CCN)C(=O)N[C@H](C(=O)N[C@@H](CCN)C(=O)N[C@H]1CCNC(=O)[C@H]([C@@H](C)O)NC(=O)[C@H](CCN)NC(=O)[C@H](CCN)NC(=O)[C@H](CCCCCC)NC(=O)[C@@H](Cc2ccccc2)NC(=O)[C@H](CCN)NC1=O)[C@@H](C)O	broth microdilution	ATCC 19606	–	0.25 to 0.5 µg/mL

Excerpt of the above:
Structure (SMILES)	assay	system	conditions	MIC
C=CCO/N=C(\C(=O)N[C@@H]1C(=O)N(OS(=O)(=O)O)C1(C)C)c1nsc(N)n1	agar dilution	2146, NDM-1	–	64 µg/mL
CC[C@H](C)[C@H](NC(=O)[C@@H](CCCNC(=N)N)NC(=O)[C@H](CCCNC(=N)N)NC(=O)[C@@H]1CCCN1C(=O)[C@@H]1CCCN1C(=O)[C@H](CCCNC(=N)N)NC(=O)[C@@H]1CCCN1C(=O)[C@H](CCCNC(=N)N)NC(=O)[C@@H]1CCCN1C(=O)[C@H](CC(C)C)NC(=O)[C@H](Cc1ccccc1)NC(=O)[C@@H]1CCCN1C(=O)[C@@H]1CCCN1C(=O)[C@H](CCCCN)NC(=O)[C@H](CC(=O)O)NC(=O)[C@@H](N)C(C)C)C(=O)N[C@@H](Cc1ccc(O)cc1)C(=O)N[C@@H](CC(N)=O)C(=O)N[C@H](CCCNC(=N)N)C(N)=O	broth microdilution	DSM 681	18 h, 37 °C, 25% MHB2	4 µg/mL
COc1ccc2ccc(O)c(/C=N/[C@H]3CCCC[C@H]3/N=C/c3ccc(C)cc3O)c2c1	bacterial growth, broth microdilution	carbapenem-resistant clinical isolate	–	> 40 µM
C=C1NC(=O)C2C[S+]([O-])CC3NC(=O)C(CSC(C)C(NC(=S)C(Cc4cnc[nH]4)NC(=O)c4csc(C(C)NC(C)=O)n4)C(=O)N[C@H](CC(C)C(=O)NC(=O)CC(C(=O)O)NC(=O)C(C)NC3=O)C(=O)N2)NC(=O)[C@@H]2CCCN2C(=O)[C@@H](CC(C)C)NC1=O (some centres unmarked)	bacterial growth	ATCC 12657	–	> 32 µg/mL
